Assay results of several laboratories.
Numbers after ± are the reported error.
rep main protease: Replicase polyprotein 1ab, main protease (rep, Severe acute respiratory syndrome coronavirus 2, UniProt P0DTD1)
Spike glycoprotein: Spike glycoprotein (Severe acute respiratory syndrome coronavirus 2, UniProt P0DTC2)
Chain of UniProt Q7BQ98 (whole entry, looked up): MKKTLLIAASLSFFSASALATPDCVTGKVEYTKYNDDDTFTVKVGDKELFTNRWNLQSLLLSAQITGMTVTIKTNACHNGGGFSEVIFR
Chain of UniProt P78348 (whole entry, looked up): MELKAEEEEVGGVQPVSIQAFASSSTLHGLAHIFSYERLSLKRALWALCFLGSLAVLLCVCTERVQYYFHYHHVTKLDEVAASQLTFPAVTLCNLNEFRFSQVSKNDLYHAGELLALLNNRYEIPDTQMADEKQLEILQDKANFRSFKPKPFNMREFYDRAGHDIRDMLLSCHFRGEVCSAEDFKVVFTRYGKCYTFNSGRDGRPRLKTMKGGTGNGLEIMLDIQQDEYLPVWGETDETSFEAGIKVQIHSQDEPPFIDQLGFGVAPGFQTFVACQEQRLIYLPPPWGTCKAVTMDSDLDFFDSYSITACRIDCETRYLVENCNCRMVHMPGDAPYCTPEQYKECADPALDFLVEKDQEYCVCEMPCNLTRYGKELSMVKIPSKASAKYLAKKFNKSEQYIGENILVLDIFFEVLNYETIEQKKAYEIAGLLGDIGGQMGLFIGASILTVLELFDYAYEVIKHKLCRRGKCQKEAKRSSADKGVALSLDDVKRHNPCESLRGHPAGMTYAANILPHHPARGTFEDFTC

CC(C)C[C@@H](C=O)NC(=O)[C@H](CC(C)C)NC(=O)[C@H](CC(C)C)NC(=O)OCc1ccccc1 — inhibition (rep main protease; reporter gene (Gaussia luciferase), inhibitor; 20 µM): -5.03%
CC1(C)CC[C@]2(C(=O)O[C@@H]3O[C@H](CO)[C@@H](O)[C@H](O)[C@H]3O)CC[C@]3(C)C(=CC[C@@H]4[C@@]5(C)CC[C@H](O[C@@H]6O[C@H](C(=O)O)[C@@H](O)[C@H](O)[C@H]6O)C(C)(C)[C@@H]5CC[C@]43C)[C@@H]2C1 — kon (Spike glycoprotein; binding, BLI): 3970 M⁻¹ s⁻¹
CCc1c(C(=O)C(N)=O)c2c(OCC(=O)O)cccc2n1Cc1ccccc1 — remaining activity (Daboia russelii venom phospholipase A2; enzyme activity, inhibitor; TN population; 0.01 µM, added: NOB substrate; baseline: venom alone): 100%
COC(=O)N[C@H](C(=O)N[C@@H](Cc1ccccc1)[C@@H](O)CN(Cc1ccc(-c2ccccn2)cc1)NC(=O)[C@@H](NC(=O)OC)C(C)(C)C)C(C)(C)C — inhibition (rep main protease; reporter gene (mKate2), inhibitor; 20 µM): 0.121%
CC1(C)Cc2ccc(C(=O)N3CCCC[C@H](C4CN(C(=O)c5cncc(O)c5)C4)C3)cc2O1 — inhibition (rep main protease; enzyme activity, inhibitor; 5 µM, run 1): 8.7%
O=C(O)c1cc(OCCNC(=O)c2cc(OCc3cn([C@@H]4O[C@H](CO)[C@H](O[C@H]5O[C@H](CO)[C@H](O)[C@H](O)[C@H]5O)[C@H](O)[C@H]4O)nn3)cc(OCc3cn([C@@H]4O[C@H](CO)[C@H](O[C@H]5O[C@H](CO)[C@H](O)[C@H](O)[C@H]5O)[C@H](O)[C@H]4O)nn3)c2)cc(OCCNC(=O)c2cc(OCc3cn([C@@H]4O[C@H](CO)[C@H](O[C@H]5O[C@H](CO)[C@H](O)[C@H](O)[C@H]5O)[C@H](O)[C@H]4O)nn3)cc(OCc3cn([C@@H]4O[C@H](CO)[C@H](O[C@H]5O[C@H](CO)[C@H](O)[C@H](O)[C@H]5O)[C@H](O)[C@H]4O)nn3)c2)c1 — log IC50 (Shiga toxin subunit B (stxB, Shigella dysenteriae, UniProt Q7BQ98); Escherichia coli): -4.7
O=C1NCc2c1cccc2C(=O)N[C@H](CNC(=O)c1ccnc2[nH]ncc12)c1ccccc1 — inhibition (rep main protease; enzyme activity; 5 µM): 10.3%
O=S(=O)(F)Cc1ccccc1 — inhibition (rep main protease; reporter gene (Gaussia luciferase), inhibitor; 20 µM): 0.216%
Nc1ncnc2c([C@@H]3N[C@H](CO)[C@@H](O)[C@H]3O)c[nH]c12 — inhibition (Venezuelan equine encephalitis virus; viral replication; HeLa, SH3; 50 µM): 1.3%
Cn1cnc(Cn2c(=O)[nH]/c(=N\c3cc4cn(C)nc4cc3Cl)n(Cc3cc(F)c(F)cc3F)c2=O)n1 — patients with adverse event (human, severe renal impairment; oral, 375 mg, treatment-related decreased GFR, Mild severity): 0%
CC[C@H](C)[C@H](NC(=O)[C@H](CC(C)C)NC(=O)[C@H](Cc1c[nH]c2ccccc12)NC(=O)[C@H](CCC(N)=O)NC(=O)[C@@H](NC(=O)[C@H](Cc1ccccc1)NC(=O)[C@H](C)NC(=O)[C@H](CCCCNC(=O)COCCOCCNC(=O)COCCOCCNC(=O)CC[C@H](NC(=O)CCCCCCCCCCCCCCCCCCC(=O)O)C(=O)O)NC(=O)[C@H](CCC(N)=O)NC(=O)[C@H](C)NC(=O)[C@@H](NC(=O)[C@H](CCCCN)NC(=O)[C@H](CC(=O)O)NC(=O)[C@H](CC(C)C)NC(=O)C(C)(C)NC(=O)[C@@H](NC(=O)[C@H](CO)NC(=O)[C@H](Cc1ccc(O)cc1)NC(=O)[C@H](CC(=O)O)NC(=O)[C@H](CO)NC(=O)[C@@H](NC(=O)[C@H](Cc1ccccc1)NC(=O)[C@@H](NC(=O)CNC(=O)[C@H](CCC(=O)O)NC(=O)C(C)(C)NC(=O)[C@@H](N)Cc1ccc(O)cc1)[C@@H](C)O)[C@@H](C)O)[C@@H](C)CC)[C@@H](C)CC)C(C)C)C(=O)N[C@@H](C)C(=O)NCC(=O)NCC(=O)N1CCC[C@H]1C(=O)N[C@@H](CO)C(=O)N[C@@H](CO)C(=O)NCC(=O)N[C@@H](C)C(=O)N1CCC[C@H]1C(=O)N1CCC[C@H]1C(=O)N1CCC[C@H]1C(=O)N[C@@H](CO)C(N)=O — subjects with treatment-emergent ADA (refers to: anti-drug antibodies; patients with type 2 diabetes; 5/5/10/15 mg escalating, post-baseline): 0%
O=C(NC[C@H](NC(=O)c1cncc2sccc12)c1ccc2ccccc2c1)c1cncs1 — inhibition (rep main protease; enzyme activity, inhibitor; 5 µM, run 2): 12.5%
CCCCN(CCCNC(=O)c1cc(Nc2cccc(SC)c2)nc2ccccc12)Cc1ccccc1 — maximum response (SARS-CoV-2; cytopathic effect; USA_WA1/2020; round 2, 5-point): 33.1%
CC(C)(C)[C@H](NC(=O)C(F)(F)F)C(=O)N1C[C@H]2[C@@H]([C@H]1C(=O)N[C@H](C#N)C[C@@H]1CCNC1=O)C2(C)C — AUC(0-t) (human, fasted; oral, 500 mg single dose, no ritonavir): 3750 ng·h/mL
C[C@@H]1O[C@@H](O[C@@H]2[C@@H](O)[C@H](OCCc3ccc(O)c(O)c3)O[C@H](CO)[C@H]2OC(=O)/C=C/c2ccc(O)c(O)c2)[C@H](O)[C@H](O)[C@H]1O — kon (Spike glycoprotein; binding, BLI): 113 M⁻¹ s⁻¹
C[C@H](NC(=O)c1[nH]nc2nc[nH]c(=O)c12)[C@@H]1CCN(C(=O)c2cc(-c3ccccc3)ccn2)C1 — inhibition (rep main protease; enzyme activity, inhibitor; 5 µM, mean of runs): 17%
CC[C@H](C)[C@H](NC(=O)[C@H](CC(C)C)NC(=O)[C@H](Cc1c[nH]c2ccccc12)NC(=O)[C@H](CCC(N)=O)NC(=O)[C@@H](NC(=O)[C@H](Cc1ccccc1)NC(=O)[C@H](C)NC(=O)[C@H](CCCCNC(=O)COCCOCCNC(=O)COCCOCCNC(=O)CC[C@H](NC(=O)CCCCCCCCCCCCCCCCCCC(=O)O)C(=O)O)NC(=O)[C@H](CCC(N)=O)NC(=O)[C@H](C)NC(=O)[C@@H](NC(=O)[C@H](CCCCN)NC(=O)[C@H](CC(=O)O)NC(=O)[C@H](CC(C)C)NC(=O)C(C)(C)NC(=O)[C@@H](NC(=O)[C@H](CO)NC(=O)[C@H](Cc1ccc(O)cc1)NC(=O)[C@H](CC(=O)O)NC(=O)[C@H](CO)NC(=O)[C@@H](NC(=O)[C@H](Cc1ccccc1)NC(=O)[C@@H](NC(=O)CNC(=O)[C@H](CCC(=O)O)NC(=O)C(C)(C)NC(=O)[C@@H](N)Cc1ccc(O)cc1)[C@@H](C)O)[C@@H](C)O)[C@@H](C)CC)[C@@H](C)CC)C(C)C)C(=O)N[C@@H](C)C(=O)NCC(=O)NCC(=O)N1CCC[C@H]1C(=O)N[C@@H](CO)C(=O)N[C@@H](CO)C(=O)NCC(=O)N[C@@H](C)C(=O)N1CCC[C@H]1C(=O)N1CCC[C@H]1C(=O)N1CCC[C@H]1C(=O)N[C@@H](CO)C(N)=O — Cmax (human, ESRD requiring dialysis, plasma; subcutaneous, 5 mg single dose, geometric mean): 347 ng/mL
O=C(/C=C/c1ccc(O)c(O)c1)O[C@H]1[C@H](O)C[C@](O)(C(=O)O)C[C@H]1OC(=O)/C=C/c1ccc(O)c(O)c1 — koff (Spike glycoprotein; binding, biolayer interferometry): 0.00393 s⁻¹
CC[C@H](C)[C@H](NC(=O)[C@@H]1CCCN1C(=O)[C@H](C)NC(=O)[C@@H]1CSSC[C@@H]2NC(=O)[C@H](CC(=O)O)NC(=O)[C@H](CCCNC(=N)N)NC(=O)[C@H](CCC(=O)O)NC(=O)[C@H](CCCNC(=N)N)NC(=O)CNC(=O)[C@H](CC(=O)O)NC(=O)[C@@H]3CSSC[C@H](NC(=O)[C@H](CCC(=O)O)NC(=O)[C@H](CC(C)C)NC(=O)CNC(=O)[C@H](C)NC(=O)[C@H](CSSC[C@H](NC(=O)[C@H](Cc4ccccc4)NC(=O)[C@@H](N)CO)C(=O)N[C@@H](CC(C)C)C(=O)N[C@@H](C(C)C)C(=O)N[C@@H](CCCCN)C(=O)N[C@@H](Cc4c[nH]c5ccccc45)C(=O)N[C@@H](CCCCN)C(=O)N[C@@H](CCC(N)=O)C(=O)N3)NC2=O)C(=O)N[C@@H](Cc2c[nH]c3ccccc23)C(=O)N[C@@H](CCCCN)C(=O)N[C@@H](CCCNC(=N)N)C(=O)N[C@@H](CO)C(=O)NCC(=O)N[C@@H](CC(N)=O)C(=O)N[C@@H](CCCCN)C(=O)N[C@@H](CO)C(=O)N[C@@H](CO)C(=O)N[C@@H](C(C)C)C(=O)N1)C(=O)N[C@H](C(=O)O)[C@@H](C)O — deactivation slowing (ASIC1 (Homo sapiens, UniProt P78348); outside-out patch clamp; HEK-293T ASIC1a knockout; 10 nM, wild type; baseline: no toxin): 2.6 ± 0.3 fold
CC[C@H](C)[C@H](NC(=O)[C@H](CC(C)C)NC(=O)[C@H](CO)NC(=O)[C@H](Cc1c[nH]cn1)NC(=O)[C@@H](NC(=O)[C@H](CC(C)C)NC(=O)[C@H](CO)NC(=O)[C@@H](NC(=O)[C@H](Cc1ccc(O)cc1)NC(=O)[C@H](CC(N)=O)NC(=O)[C@H](CC(N)=O)NC(=O)[C@@H](NC(=O)[C@H](CCC(=O)O)NC(=O)[C@H](CCCNC(=N)N)NC(=O)[C@H](CC(=O)O)NC(=O)[C@H](Cc1c[nH]c2ccccc12)NC(=O)[C@H](CCC(=O)O)NC(=O)[C@H](CCSC)NC(=O)[C@H](Cc1c[nH]c2ccccc12)NC(C)=O)[C@@H](C)CC)[C@@H](C)O)[C@@H](C)CC)C(=O)N[C@@H](CCC(=O)O)C(=O)N[C@@H](CCC(=O)O)C(=O)N[C@@H](CO)C(=O)N[C@@H](CCC(N)=O)C(=O)N[C@@H](CC(N)=O)C(=O)N[C@@H](CCC(N)=O)C(=O)N[C@@H](CCC(N)=O)C(=O)N[C@@H](CCC(=O)O)C(=O)N[C@@H](CCCCN)C(=O)N[C@@H](CC(N)=O)C(=O)N[C@@H](CCC(=O)O)C(=O)N[C@@H](CCC(N)=O)C(=O)N[C@@H](CCC(=O)O)C(=O)N[C@@H](CC(C)C)C(=O)N[C@@H](CC(C)C)C(=O)NCC(=O)N[C@@H](CO)C(=O)NCC(=O)N[C@@H](CSCC(=O)O[C@H]1CC[C@@]2(C)C(=CC[C@H]3[C@@H]4CC[C@H]([C@H](C)CCCC(C)(C)O)[C@@]4(C)CC[C@@H]32)C1)C(N)=O — partition coefficient (Trp fluorescence; POPC/cholesterol/SM vesicles; 5 µM, pH 7.4, 25 °C): 775 ± 307
C=C(C)C1(O)OC(=O)C=C1OC (stereo not drawn) — inhibition (rep main protease; reporter gene (mKate2), inhibitor; HEK293T; 20 µM): -0.522%
